Measured values pooled from the literature.
Parts stem from different laboratories: compare values within a part only. Positions count from the first letter of the parent shown.

Set 1 — method: aptamer microarray, sandwich; molecule type: DNA with 2'F-ANA; sample: in vitro; concentration: 200 nM; with: Cy3 exosite-II aptamer, 400 nM; reading: higher = stronger binding; quantity: mean fluorescence intensity; strand: GGTTGGTGTGGTTGG
Target: Prothrombin, mature alpha-thrombin (F2, Homo sapiens, UniProt P00734)
Notes: whole 15-mer aptamer, many near background
2'F-ANA at 1 5 7 8 9 10 12 13 14: 52.5 a.u.
2'F-ANA at 1 2 4 10 11 13: 58.8 a.u.
2'F-ANA at 3 6 8 12 13 14: 562 a.u.
2'F-ANA at 3 4 6 7 9 10 11 13: 176 a.u.
2'F-ANA at 3 4 6 7 8 14 15: 369 a.u.
2'F-ANA at 3 5 6 7 9 11: 86.3 a.u.
2'F-ANA at 1 3 4 7 8 9 10 14 15: 54.9 a.u.
2'F-ANA at 1 3 4 6 8 12 14 15: 89.1 a.u.
2'F-ANA at 2 3 4 5 6 7 8 12 14 15: 59.2 a.u.
2'F-ANA at 2 3 4 5 6 8 10 12 13 14: 58.9 a.u.
2'F-ANA at 3 4 7 9 11 12 13 15: 662 a.u.
2'F-ANA at 3 6 8 10 11 12 13 14: 361 a.u.
2'F-ANA at 1 2 3 4 5 7 8 9 10 13 14 15: 136 a.u.
2'F-ANA at 1 2 3 6 8 9 10 11 12 13 14 15: 60.2 a.u.
2'F-ANA at 2 4 5 6 9 10 13 15: 192 a.u.
2'F-ANA at 4 6 8 9 10 12 14: 59.6 a.u.
2'F-ANA at 3 4 8 9 10 11 12 13: 264 a.u.
2'F-ANA at 3 4 5 10 14 15: 121 a.u.
2'F-ANA at 2 3 4 6 10 11 13: 221 a.u.
2'F-ANA at 1 2 4 6 8 11 15: 110 a.u.
2'F-ANA at 1 2 3 5 7 8 9 11 12: 113 a.u.
2'F-ANA at 2 4 5 7 10 14 15: 45.7 a.u.
2'F-ANA at 2 4 7 8 10 11 13 14: 60.2 a.u.
2'F-ANA at 2 4 5 6 8 10 15: 48.8 a.u.

Set 2 — target: CCNE2, cyclin fold, Cln2 fusion (human); method: yeast growth competition, sequencing; sample: yeast; notes: strong parent motif; baseline: not given; reading: higher = stronger binding; quantity: normalised enrichment score
Starting sequence: E2F1 docking peptide (human); PPVKRRLDFETDH
PPEKRRLDFETDH [V3E]: 0.677
PPVKRRLDFETGH [D12G]: 6.36
PPVKRWLDFETDH [R6W]: 2.67
PPVKRRLDFEVDH [T11V]: 5.68
PDVKRRLDFETDH [P2D]: 4.45
PPVKRRLDFETIH [D12I]: 6.54
PPVKRRLDFETSH [D12S]: 6.29
PPVKRRLDCETDH [F9C]: 0.423
PPVKRRLGFETDH [D8G]: 3.32
PPIKRRLDFETDH [V3I]: 3.25
PPVKRRLDFEFDH [T11F]: 6.08
PPVKRRCDFETDH [L7C]: 0.401
PAVKRRLDFETDH [P2A]: 5.21
PPVKRSLDFETDH [R6S]: 1.71
PPVKRRLAFETDH [D8A]: 5.57
PPVKRRLDFNTDH [E10N]: 6.75
PPPKRRLDFETDH [V3P]: 1.81
PPFKRRLDFETDH [V3F]: 2.68
PPVKRRLDFETTH [D12T]: 6.07
PPVKRVLDFETDH [R6V]: 5.6

Set 3 — method: RNA Bind-n-Seq; molecule type: RNA; sample: in vitro; concentration: not given; baseline: input RNA pool; reading: higher = stronger binding; quantity: bound/input enrichment
Target: RING finger protein unkempt homolog, zinc fingers 1-6, GST-SBP tag (UNK, Homo sapiens, UniProt Q9C0B0, residues 30-357)
Chain of UniProt Q9C0B0 (30-357, looked up): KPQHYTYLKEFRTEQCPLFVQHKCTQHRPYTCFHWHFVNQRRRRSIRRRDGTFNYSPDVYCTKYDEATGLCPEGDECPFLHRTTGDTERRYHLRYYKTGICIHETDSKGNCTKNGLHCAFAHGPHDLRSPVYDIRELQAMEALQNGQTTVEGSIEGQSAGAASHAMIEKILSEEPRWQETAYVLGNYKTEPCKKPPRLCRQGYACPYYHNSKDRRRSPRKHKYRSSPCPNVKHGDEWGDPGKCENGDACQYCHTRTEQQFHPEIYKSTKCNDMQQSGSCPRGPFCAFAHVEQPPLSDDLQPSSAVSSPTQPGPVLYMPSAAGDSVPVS
Notes: RNA with constant flanks, human and mouse sites, ends assumed
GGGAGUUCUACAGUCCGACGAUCUUUAUACAAGGAGAAGCACUGGAUCCAAAGCAUGUCUGCAACCCAGCCAUUUUCAGGCUAAUAGCUCGUCAGCUUGCUAAAAUCCAUGCUAUUCAUGCACACAAUGGCUGGAUCCCCAAACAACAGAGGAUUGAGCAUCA: 0.182 ratio
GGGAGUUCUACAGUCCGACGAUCGAUUACAAGGGCCAGAAGCUAGCUGAACAGAUGUUUCAGGGAAUUAUUCUUUUUUCUGCAAUAGUUGGAUUUAUCUACGGGUACGUGGCUGAACAGUUCGGGUGGACUGUCUAUAUAGUUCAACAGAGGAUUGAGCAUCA: 0.483 ratio
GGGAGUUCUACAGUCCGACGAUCCUCUACAAUGCUGCCAGUUUAUUUGGAUUCCCGUUCCAGCUGACCACAAAACCCAUGGUGUCUUCUGCUUGUAAUGGAACACGGAAUGUGGCCCCUUCUGGAGAGGUCUUUUCGAACUCUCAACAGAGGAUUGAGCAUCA: 0.228 ratio
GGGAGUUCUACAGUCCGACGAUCAUCAACGUUCGGAAAGGCAGCAUCUCGGGGAUUAGCAUGGUCCUGGCAGCCUACGUGGUUUUCAGCUACUGCAUUUCUUACAAGGAACUCAAACAUGAGCGGCGACGCAAGUACCACUGACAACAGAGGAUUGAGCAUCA: 0.107 ratio
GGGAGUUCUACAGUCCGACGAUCACGAACUUUCAGGCAACACCGUUAUUGAACGACCCAGACAGAUCUGUCCUUAUGUAAUUGUAGCUUUUCGAUACAGGGAAUCUAAAACUAUGGCACCACCAGCUCAUAAAAGCAUACUUGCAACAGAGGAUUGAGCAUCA: 0.236 ratio
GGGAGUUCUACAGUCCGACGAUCUAAGUGAUUUUUUGUUCAUUGUUCCAUGUAAUAUUUUAUACAGAUUUUGAAAUAUGUAAUAAUAUUGAUUCAGUAUUGUGACAGGGUGCAGUUUAAGACAGUGGGAUACAAGAUAAUUUACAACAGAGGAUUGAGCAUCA: 0.25 ratio
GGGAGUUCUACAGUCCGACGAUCAUGCAUCUGAAGAAGCCAGGAGGCUUUGAUGUAUCCGUGUUCUACAGGGACAUCAUCACCACCGCUGAGGACGAGGACCUUGGGGUUCACUUCGAGGAGUCAAGCAAGCUGGAAGACCUGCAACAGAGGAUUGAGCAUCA: 0.123 ratio
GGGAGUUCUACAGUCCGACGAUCAAACGCCGUUUCAGGAAGUUCCUGGUUUAUGUUGCCAACUUUGAUGAAAAAGAUCCUAGAACUUUCGAGGGUGUUGAUCCUAAGAAGACCUCCAUGAGAGAUGUGUAUAAGAAGUUUGAUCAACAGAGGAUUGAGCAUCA: 0.176 ratio
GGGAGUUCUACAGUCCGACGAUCGGAUCAGACCUGUGAACUACCCAGAAGAAAUUGUCUGCUGCCCUUUUCCAAUCCAGUGAAUUUAGAUGCCCCUGAAGACAAGGACAGCCCUUUCGGAUGAUCCAGAUUCCAGUACCAGUACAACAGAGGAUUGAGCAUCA: 0.149 ratio
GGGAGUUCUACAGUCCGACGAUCAAGAUAAACAGAAUAGACCAUGACCGGAGAGCGAUGGCUACUUUGCUUAGCAAGUUCCGGAUAGACUUUUCUGAUAUCAUGGUUCUAGGAGAUAUCAAUACCAAACCAAAGAAAGAAAAUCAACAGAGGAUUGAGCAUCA: 0.15 ratio
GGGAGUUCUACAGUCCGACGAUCGAGGUACUUAUAAGACAUUUCCAAAGUCAAGUUAAUGAGCUGCAGAGUAAACAAGAGUCUCUCGUAGUUUCUGAAGUUCGAGAAGAAAUUCUACAGAAAGAGAUUACAAAACUCUUAGAACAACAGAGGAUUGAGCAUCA: 0.244 ratio

Set 4 — method: DHFR PCA, deep sequencing; sample: yeast; with: (+)-ABA 2500 µM; baseline: wild-type fitted maximum; reading: higher = stronger binding; quantity: relative binding score
Target: ABI1, truncated, D143A, DHFR fusion (Arabidopsis thaliana)
Notes: methotrexate growth selection, single substitutions
Starting sequence: PYL1, truncated, DHFR fusion (Arabidopsis thaliana); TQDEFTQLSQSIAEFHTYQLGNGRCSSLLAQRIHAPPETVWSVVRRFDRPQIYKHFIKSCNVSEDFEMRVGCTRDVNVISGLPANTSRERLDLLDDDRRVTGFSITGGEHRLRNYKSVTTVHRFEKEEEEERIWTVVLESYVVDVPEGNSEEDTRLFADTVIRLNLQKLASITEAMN; partner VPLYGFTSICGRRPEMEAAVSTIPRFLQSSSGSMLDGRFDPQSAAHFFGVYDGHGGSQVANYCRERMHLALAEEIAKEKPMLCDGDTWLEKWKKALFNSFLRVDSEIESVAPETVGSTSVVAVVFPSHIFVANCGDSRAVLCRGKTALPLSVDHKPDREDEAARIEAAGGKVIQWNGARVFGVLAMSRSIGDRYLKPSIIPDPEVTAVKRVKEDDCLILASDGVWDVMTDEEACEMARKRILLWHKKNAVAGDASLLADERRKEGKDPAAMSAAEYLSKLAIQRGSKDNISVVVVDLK
E64Q: 97.3%
I172V: 95.6%
V44Y: 41.1%
D92R: 82.8%
D95L: 87.7%
L8W: 107%
E152Q: 95.9%
T119L: 106%
V118T: 102%
E129Y: 101%
N149W: 19%
Q167K: 96.1%
E127L: 100%
R74Q: 13.8%
E147D: 102%
D153E: 98%
N22V: 101%
Q7T: 99.7%
R155F: 70.8%
E128T: 111%
V62N: 81.5%
R155A: 87%
V70A: 96.9%
I33Y: 37.3%
Y115H: 45.3%

Set 5 — method: universal PBM; molecule type: double-stranded DNA, one strand shown; sample: in vitro; concentration: not given; reading: higher = stronger binding; quantity: E-score
Target: Sal-like protein 4, full length isoform B (SALL4, Homo sapiens, UniProt Q9UJQ4-2, residues 1-616)
Notes: 8-mer, flanks averaged, mean of replicates
GTAACGAA: 0.164
ACGACAAT: 0.16
CTCTCGTA: 0.0245
CCATAGCC: -0.121
ACCACAAC: 0.0682
GTCAGTCA: -0.118
AACCTCGA: 0.0173
AAAGTGCG: -0.0815
AAGAGATG: -0.0344
GCGTGGCA: -0.256
GAACATCC: 0.0175
TAATCCAA: 0.217
CACAGTCC: -0.208
GCTATAAC: 0.208
AGACTGTG: -0.0728
CTGGCCGA: -0.257
CCCCCCCC: -0.31
CCTTGTTC: -0.107
GCCCGACC: -0.291
AAGCTGGA: -0.00156
AAAGCTAT: 0.221
AGATTAGC: -0.0108
AAGATGGG: -0.0795
CTGGGCGC: -0.334

Some of these lines once more (set 5):
GTAACGAA: 0.164
GCGTGGCA: -0.256
CCATAGCC: -0.121
CTGGCCGA: -0.257
ACGACAAT: 0.16
AAAGTGCG: -0.0815
